# Measurements of several laboratories.
# Numbered parts are unrelated; each lists some results of a single study.

# Sample 1 — technique: aptamer microarray, sandwich; form: DNA with 2'F-ANA; matrix: in vitro; concentration: 200 nM; together with: Cy3 exosite-II aptamer, 400 nM; reading: higher = stronger binding; oligonucleotide: GGTTGGTGTGGTTGG
# Target: Prothrombin, mature alpha-thrombin (F2, Homo sapiens, UniProt P00734)
# Setting: whole 15-mer aptamer, many near background
Modification,mean fluorescence intensity [a.u.]
2'F-ANA at 2 4 6 7 9 12 15,409
2'F-ANA at 1 2 3 4 6 12 15,331
2'F-ANA at 4 5 6 8 9 10 11 13,52.6
2'F-ANA at 1 2 4 5 12 13 15,84.8
2'F-ANA at 1 2 6 7 9 10 14,45.4

# Sample 2 — technique: competition protein-binding microarray; form: double-stranded DNA, one strand shown; matrix: in vitro; concentration: 2 µM; together with: Pho4 competitor, 0.05 µM; reading: higher = stronger binding
# Target: Centromere-binding protein 1, full length, His-tagged (CBF1, Saccharomyces cerevisiae, UniProt P17106, residues 1-351)
# Sequence of UniProt P17106 (whole entry, looked up): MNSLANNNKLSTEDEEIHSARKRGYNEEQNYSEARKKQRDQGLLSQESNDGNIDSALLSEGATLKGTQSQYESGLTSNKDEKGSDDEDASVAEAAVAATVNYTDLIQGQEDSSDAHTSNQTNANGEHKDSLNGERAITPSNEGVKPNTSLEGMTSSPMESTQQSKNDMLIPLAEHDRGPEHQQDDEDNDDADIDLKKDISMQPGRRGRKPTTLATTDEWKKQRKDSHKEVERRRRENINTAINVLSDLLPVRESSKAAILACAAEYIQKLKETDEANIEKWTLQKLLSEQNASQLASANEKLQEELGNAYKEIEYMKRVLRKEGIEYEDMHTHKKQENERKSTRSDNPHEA
# Setting: whole 60-bp probe, lowest competitor level
Oligonucleotide,fluorescence intensity [a.u.]
GGTTAGGTTGACCATCACGTGGAGGTCAGACATTATGTCTTGATTCGCTTGACGCTGCTG,1760
CCAGTGATTGCGTCCCACGCTCGTTACTGGTTCCTGGTCTTGATTCGCTTGACGCTGCTG,60.3
CGCTTCAGGACAGTACACGTGATCCAGCATAAGATGGTCTTGATTCGCTTGACGCTGCTG,7970
CTTCTGTAAATTTGCGCGGTGGGTGGACGCGCCCCGGTCTTGATTCGCTTGACGCTGCTG,94.4

# Sample 3 — technique: RNA Bind-n-Seq; form: RNA; matrix: in vitro; concentration: 200 nM; setting: whole 134-nt RNA, ends assumed; together with: 150 mM LiCl; baseline: input library; reading: higher = stronger binding; library: 7-deaza-guanosine replaces G
# Target: Ras GTPase-activating protein-binding protein 1, full length (G3BP1, Homo sapiens, UniProt Q13283)
# Sequence of UniProt Q13283 (whole entry, looked up): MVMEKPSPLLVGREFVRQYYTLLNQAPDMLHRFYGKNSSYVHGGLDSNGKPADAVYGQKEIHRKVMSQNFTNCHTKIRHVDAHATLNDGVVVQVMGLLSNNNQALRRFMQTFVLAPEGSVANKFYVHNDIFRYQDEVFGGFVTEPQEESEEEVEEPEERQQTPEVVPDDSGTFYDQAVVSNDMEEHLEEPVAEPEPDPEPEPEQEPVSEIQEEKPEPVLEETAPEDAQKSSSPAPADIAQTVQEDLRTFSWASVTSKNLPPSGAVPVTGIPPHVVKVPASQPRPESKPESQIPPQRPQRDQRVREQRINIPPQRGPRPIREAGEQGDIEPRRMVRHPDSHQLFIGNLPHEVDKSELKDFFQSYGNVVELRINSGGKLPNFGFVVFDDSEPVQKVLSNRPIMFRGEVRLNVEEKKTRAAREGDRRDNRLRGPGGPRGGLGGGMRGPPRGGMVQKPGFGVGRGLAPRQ
Oligonucleotide,log2 enrichment
GGGAGUUCUACAGUCCGACGAUCAGUCCUGUGCUACACAUCGUAUGUACCGAAUCGGUUUUGGGGUUUUGGGGUUUUGGGGAAAGUAUUAUGUUACGCCGUUCGGAUCUGCACUGGAAUUCUCGGGUGUCAAGG,0.536
GGGAGUUCUACAGUCCGACGAUCCCUGUGCUACACAUCGUAUGUACCGAAUCGGGGUUUUUGGGGUUUUUUUGGGGAAAGGGGAAAGUAUUAUGUUACGCCGUUCGGAUCUGCUGGAAUUCUCGGGUGUCAAGG,0.885
GGGAGUUCUACAGUCCGACGAUCCUGUGCUACACAUCGUAUGUACCGAAUCGGGGUUUUUUGGGGUUUUUUGGGUUUUUUGGGGAAAGUAUUAUGUUACGCCGUUCGGAUCUGUGGAAUUCUCGGGUGUCAAGG,1.39

# Other studies, line by line
Substance,target,test,system,conditions,scale,measurement,result
"PhoQ, residues 284 288 289 292 302 303 ALSMDL","PhoP, residues 12 14 15 18 19 LWHVM (Escherichia coli, UniProt P23836)","Sort-seq, refers to: YFP reporter",E. coli,"PhoQ-PhoP variant library, together with: 10 µM Mg2+","baseline: high Mg2+ state, higher = stronger signaling",fold induction,8.35
